Measured values gathered from unrelated publications.
Lines come from different studies, so protocols differ. “And” joins repeats or separate records; there may be more than shown. Numbers after ± are the reported error.
GRM4: Metabotropic glutamate receptor 4 (GRM4, Homo sapiens, UniProt Q14833)

Sequences of proteins named here, by UniProt entry; tags and fusion partners are left off. A change or cut given only in a name is not applied to a line headed by its entry. Residues count along the entry.
UniProt Q14833, 33-912 limits assumed: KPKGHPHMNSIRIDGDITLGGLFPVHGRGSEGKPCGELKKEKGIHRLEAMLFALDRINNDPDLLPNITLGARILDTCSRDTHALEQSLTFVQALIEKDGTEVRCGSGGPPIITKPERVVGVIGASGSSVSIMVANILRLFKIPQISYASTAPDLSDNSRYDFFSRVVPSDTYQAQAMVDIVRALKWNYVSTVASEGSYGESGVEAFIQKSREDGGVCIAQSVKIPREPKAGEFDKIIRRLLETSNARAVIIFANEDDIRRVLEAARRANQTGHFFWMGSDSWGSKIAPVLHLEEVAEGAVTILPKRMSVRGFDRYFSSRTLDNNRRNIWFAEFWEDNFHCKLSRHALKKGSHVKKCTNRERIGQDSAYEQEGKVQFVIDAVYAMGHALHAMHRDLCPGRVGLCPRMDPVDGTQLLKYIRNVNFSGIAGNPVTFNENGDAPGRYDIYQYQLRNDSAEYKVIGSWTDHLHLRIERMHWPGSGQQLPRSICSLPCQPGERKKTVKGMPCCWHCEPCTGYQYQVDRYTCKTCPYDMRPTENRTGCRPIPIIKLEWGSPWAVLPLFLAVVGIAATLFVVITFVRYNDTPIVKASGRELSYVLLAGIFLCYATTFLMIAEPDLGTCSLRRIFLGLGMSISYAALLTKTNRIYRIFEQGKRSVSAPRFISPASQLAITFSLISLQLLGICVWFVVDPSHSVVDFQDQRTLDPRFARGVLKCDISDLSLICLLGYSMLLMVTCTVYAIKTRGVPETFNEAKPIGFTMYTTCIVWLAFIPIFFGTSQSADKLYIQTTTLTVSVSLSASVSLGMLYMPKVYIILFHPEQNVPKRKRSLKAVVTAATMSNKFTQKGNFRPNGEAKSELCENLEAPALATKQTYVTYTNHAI
UniProt O75874, whole entry R132H: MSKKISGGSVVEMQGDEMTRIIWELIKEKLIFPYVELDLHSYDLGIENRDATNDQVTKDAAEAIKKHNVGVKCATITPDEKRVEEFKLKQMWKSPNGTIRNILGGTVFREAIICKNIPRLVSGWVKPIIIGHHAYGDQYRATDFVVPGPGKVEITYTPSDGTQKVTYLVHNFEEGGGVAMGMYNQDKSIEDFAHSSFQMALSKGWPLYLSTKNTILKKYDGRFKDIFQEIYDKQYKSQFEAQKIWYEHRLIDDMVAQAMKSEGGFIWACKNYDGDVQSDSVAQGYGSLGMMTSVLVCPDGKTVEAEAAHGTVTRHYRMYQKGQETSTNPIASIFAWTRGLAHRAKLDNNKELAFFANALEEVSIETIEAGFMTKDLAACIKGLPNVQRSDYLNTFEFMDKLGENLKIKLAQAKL
UniProt P46934, whole entry, looked up: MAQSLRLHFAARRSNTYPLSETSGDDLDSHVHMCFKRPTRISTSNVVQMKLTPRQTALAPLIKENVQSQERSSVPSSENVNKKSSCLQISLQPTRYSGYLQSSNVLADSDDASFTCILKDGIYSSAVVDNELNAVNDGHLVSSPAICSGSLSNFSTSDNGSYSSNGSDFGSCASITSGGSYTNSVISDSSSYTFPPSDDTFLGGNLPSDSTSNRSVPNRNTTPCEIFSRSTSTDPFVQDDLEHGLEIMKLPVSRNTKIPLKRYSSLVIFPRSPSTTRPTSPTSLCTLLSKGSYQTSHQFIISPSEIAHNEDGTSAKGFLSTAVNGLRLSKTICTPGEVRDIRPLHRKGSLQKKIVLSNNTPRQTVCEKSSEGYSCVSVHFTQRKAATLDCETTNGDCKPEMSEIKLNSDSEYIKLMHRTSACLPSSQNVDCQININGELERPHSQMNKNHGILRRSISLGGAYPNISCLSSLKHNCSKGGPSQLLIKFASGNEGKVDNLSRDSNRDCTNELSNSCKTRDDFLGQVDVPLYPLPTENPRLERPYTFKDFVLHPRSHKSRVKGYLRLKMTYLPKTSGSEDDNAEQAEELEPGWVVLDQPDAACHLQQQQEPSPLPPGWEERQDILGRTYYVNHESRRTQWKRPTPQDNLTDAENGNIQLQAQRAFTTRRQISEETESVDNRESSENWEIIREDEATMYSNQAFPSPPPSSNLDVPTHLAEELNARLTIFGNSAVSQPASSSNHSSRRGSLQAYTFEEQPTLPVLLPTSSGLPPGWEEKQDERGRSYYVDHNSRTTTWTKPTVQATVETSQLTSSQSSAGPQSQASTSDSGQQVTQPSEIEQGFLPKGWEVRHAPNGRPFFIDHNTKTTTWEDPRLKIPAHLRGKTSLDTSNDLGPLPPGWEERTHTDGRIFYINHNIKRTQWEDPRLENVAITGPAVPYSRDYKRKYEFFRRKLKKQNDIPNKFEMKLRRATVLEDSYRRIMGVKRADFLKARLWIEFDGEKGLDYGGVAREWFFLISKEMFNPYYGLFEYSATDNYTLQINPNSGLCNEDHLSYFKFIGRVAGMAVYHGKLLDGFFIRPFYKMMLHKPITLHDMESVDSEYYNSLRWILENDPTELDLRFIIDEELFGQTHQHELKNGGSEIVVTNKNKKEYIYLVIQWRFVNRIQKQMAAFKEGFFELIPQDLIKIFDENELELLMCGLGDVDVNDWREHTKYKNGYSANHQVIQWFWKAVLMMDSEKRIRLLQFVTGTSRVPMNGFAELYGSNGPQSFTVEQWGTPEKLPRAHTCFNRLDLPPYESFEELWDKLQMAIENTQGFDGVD
UniProt Q9Y3Z3, whole entry: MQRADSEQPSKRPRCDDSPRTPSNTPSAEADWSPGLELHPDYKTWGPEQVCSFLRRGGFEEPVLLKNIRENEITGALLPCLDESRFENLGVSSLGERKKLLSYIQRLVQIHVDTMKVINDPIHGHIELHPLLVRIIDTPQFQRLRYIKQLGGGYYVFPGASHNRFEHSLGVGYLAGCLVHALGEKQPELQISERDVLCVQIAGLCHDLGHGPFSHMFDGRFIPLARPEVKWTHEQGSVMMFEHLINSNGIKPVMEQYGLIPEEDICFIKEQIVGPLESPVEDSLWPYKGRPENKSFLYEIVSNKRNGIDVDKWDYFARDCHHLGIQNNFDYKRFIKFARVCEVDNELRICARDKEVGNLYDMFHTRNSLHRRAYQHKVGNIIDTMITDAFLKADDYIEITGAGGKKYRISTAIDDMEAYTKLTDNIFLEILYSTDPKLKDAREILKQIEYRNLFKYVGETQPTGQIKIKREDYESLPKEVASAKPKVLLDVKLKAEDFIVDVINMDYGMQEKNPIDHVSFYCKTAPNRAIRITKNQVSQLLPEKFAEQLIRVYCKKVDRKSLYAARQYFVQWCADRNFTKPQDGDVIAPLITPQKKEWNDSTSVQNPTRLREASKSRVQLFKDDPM
UniProt Q3UFF7, whole entry: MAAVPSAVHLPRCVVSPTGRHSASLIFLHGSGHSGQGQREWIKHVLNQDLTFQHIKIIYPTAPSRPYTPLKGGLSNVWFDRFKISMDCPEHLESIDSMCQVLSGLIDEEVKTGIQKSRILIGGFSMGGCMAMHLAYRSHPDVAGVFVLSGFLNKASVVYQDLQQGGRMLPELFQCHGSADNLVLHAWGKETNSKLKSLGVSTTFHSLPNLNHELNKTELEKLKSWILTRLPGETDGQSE
UniProt P30291, whole entry: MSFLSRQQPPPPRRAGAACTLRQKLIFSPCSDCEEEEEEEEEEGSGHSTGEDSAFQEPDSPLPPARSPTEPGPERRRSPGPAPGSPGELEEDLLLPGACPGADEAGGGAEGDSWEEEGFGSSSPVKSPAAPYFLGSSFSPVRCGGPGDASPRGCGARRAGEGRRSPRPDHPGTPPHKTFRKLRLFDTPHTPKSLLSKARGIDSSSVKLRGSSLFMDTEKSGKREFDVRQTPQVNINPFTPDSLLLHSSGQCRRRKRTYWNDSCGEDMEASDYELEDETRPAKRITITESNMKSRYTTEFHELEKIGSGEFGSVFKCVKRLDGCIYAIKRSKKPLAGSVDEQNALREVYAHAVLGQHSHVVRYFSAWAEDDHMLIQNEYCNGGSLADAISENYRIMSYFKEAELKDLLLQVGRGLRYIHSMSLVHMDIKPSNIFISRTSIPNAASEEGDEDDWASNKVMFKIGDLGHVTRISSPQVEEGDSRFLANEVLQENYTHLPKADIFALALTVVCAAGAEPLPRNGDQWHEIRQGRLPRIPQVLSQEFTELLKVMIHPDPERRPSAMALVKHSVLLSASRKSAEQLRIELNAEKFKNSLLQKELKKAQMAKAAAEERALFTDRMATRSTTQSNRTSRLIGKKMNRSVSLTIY
UniProt Q96SW2, whole entry: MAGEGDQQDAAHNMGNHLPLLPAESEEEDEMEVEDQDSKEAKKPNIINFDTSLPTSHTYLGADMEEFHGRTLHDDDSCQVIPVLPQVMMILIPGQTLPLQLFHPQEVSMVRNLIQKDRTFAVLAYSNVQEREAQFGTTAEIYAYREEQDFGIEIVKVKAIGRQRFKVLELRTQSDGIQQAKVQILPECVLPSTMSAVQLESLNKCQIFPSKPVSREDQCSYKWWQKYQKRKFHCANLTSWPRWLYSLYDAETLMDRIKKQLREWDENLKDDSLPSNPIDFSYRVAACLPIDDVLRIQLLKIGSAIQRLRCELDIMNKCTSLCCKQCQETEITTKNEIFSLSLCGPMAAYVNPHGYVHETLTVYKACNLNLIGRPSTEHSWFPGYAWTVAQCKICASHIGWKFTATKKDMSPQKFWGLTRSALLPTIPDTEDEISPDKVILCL
UniProt Q16531, whole entry partner: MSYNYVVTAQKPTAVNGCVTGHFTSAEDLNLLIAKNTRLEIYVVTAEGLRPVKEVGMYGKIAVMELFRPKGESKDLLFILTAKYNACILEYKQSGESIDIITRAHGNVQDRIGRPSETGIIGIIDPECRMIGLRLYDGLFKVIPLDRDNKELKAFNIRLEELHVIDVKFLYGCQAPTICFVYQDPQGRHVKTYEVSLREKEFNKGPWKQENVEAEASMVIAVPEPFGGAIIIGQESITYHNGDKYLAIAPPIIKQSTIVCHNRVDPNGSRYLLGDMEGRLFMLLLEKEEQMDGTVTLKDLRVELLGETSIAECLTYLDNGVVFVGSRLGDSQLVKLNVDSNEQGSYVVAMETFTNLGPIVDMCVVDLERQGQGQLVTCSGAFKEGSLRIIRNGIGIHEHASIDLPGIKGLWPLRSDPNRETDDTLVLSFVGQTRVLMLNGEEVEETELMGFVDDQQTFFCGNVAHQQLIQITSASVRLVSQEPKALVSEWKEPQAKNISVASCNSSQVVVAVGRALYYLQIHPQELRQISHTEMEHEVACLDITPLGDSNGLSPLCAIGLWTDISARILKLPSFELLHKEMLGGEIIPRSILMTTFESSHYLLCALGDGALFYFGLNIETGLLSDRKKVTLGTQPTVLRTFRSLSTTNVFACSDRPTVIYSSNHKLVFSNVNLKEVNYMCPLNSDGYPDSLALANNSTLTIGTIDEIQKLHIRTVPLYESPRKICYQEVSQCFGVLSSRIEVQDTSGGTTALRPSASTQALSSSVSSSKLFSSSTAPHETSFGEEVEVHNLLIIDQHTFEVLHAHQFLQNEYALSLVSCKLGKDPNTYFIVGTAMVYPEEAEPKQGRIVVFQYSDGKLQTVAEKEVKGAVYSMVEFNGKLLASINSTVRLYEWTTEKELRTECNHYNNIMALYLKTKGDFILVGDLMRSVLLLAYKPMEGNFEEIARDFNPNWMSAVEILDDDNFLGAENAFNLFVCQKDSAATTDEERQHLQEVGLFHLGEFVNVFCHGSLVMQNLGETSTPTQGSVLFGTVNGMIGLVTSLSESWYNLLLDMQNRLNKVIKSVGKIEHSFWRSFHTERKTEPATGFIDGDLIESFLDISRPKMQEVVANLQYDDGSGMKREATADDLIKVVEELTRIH

| Structure (SMILES) | target | assay | system | setting | how to read | endpoint | value |
| --- | --- | --- | --- | --- | --- | --- | --- |
| COc1ccc(NC(=O)CN2CCCN(S(=O)(=O)c3cc(C)c(Cl)cc3F)CC2)c(OC)c1 | GRM4 | calcium mobilization, positive allosteric modulator | CHO cells with Gqi5 | together with: glutamate | reference: PHCCC maximal response | maximal response | 36.9% |
| C[C@H](Nc1nc(N[C@@H](C)C2CC2)nc(-c2cccc(C(F)(F)F)n2)n1)C1CC1 | IDH1 (Homo sapiens, UniProt O75874, R132H) | enzyme activity, inhibitor | – | mutant heterodimer reverse reaction | – | maximal inhibition | 110% |
| CCOC(=O)/C=C/CNCCCCCN1c2ccccc2CCc2ccc(Cl)cc21 | E3 ubiquitin-protein ligase NEDD4 (Homo sapiens, UniProt P46934) | inhibitor, Ub-TR-FRET | – | 0.005081 µM, 1 h preincubation, HECT domain, together with: ATP 2 mM | higher = more ubiquitination | ubiquitination TR-FRET signal AUC | 97900 a.u. and 100000 a.u. and 70900 a.u. and 71200 a.u. and 98400 a.u. and 68800 a.u. |
| COc1ccc(NC(=O)CN2CCCN(S(=O)(=O)c3ccoc3)CC2)c(OC)c1 | GRM4 | calcium mobilization, positive allosteric modulator | CHO cells with Gqi5 | together with: glutamate | reference: PHCCC maximal response | maximal response | 34.1 ± 3.6% |
| Nc1nc2c(ncn2COCCNC(=O)CCCCNC(=O)c2cc3cc(Br)ccc3c(Br)c2O)c(=O)[nH]1 | SAMHD1 (Homo sapiens, UniProt Q9Y3Z3) | differential scanning fluorimetry | – | 50 µM, 3 µM apo protein | – | delta Tm | 3.8 °C |
| Nc1nc(NCc2ccc(Cl)cc2)nn1S(=O)(=O)c1ccc2ncsc2c1 | Lysophospholipase-like protein 1 (Mus musculus, UniProt Q3UFF7) | activator, gel-based ABPP FP-rhodamine | – | – | reference: DMSO | probe labelling | 1 fold |
| COC(=O)[C@@]1(C)C=C(C(=O)Nc2cccc(C(=O)NC34CC(Nc5nccc(-c6cccnc6)n5)(C3)C4)c2)C(=O)CC1 | MAPK9 (Homo sapiens, UniProt P45984) | enzyme activity, inhibitor | – | 2.788e-05 µM | – | remaining activity | 0.999 fraction of control |
| O=C1CCC(N2Cc3cc(-c4nc5ccccn5c4Cl)ccc3C2=O)C(=O)N1 (centres unmarked) | WEE1/CRBN (Homo sapiens, UniProt P30291+Q96SW2) | degrader, HiBiT | Jurkat | 5 h | – | Dmax | 87% |

Some of these lines once more:
| Structure (SMILES) | target | assay | system | setting | how to read | endpoint | value |
| --- | --- | --- | --- | --- | --- | --- | --- |
| COC(=O)[C@@]1(C)C=C(C(=O)Nc2cccc(C(=O)NC34CC(Nc5nccc(-c6cccnc6)n5)(C3)C4)c2)C(=O)CC1 | MAPK9 (Homo sapiens, UniProt P45984) | enzyme activity, inhibitor | – | 2.788e-05 µM | – | remaining activity | 0.999 fraction of control |
